Measurements pooled from the literature.
Numbered parts are unrelated; each lists some results of a single study. Changes are numbered by the printed parent chain.

Series 1
Target: RING finger protein unkempt homolog, zinc fingers 1-6, GST-SBP tag (UNK, Homo sapiens, UniProt Q9C0B0, residues 30-357)
Method: RNA Bind-n-Seq
Form: RNA
Sample: in vitro
Tested at: not given
Notes: RNA with constant flanks, ends assumed
Reference: input RNA pool
Reading: higher = stronger binding
Shared flanks, not repeated: GGGAGUUCUACAGUCCGACGAUC … CAACAGAGGAUUGAGCAUCA
Residues (chain): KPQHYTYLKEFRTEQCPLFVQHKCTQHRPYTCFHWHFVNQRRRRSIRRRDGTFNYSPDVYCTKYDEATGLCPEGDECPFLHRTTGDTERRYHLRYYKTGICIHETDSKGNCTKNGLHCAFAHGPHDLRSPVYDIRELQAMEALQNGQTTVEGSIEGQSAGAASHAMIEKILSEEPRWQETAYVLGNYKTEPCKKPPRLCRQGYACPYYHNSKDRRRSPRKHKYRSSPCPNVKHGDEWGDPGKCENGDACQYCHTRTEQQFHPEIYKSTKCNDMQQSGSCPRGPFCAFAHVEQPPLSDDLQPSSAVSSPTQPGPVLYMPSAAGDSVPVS
With `GCAUCUAUCGAGUUUGCAAUGUCACAACCUCUCUGAUCUUGUGCUCAGCAUGAUUCUUUAACCGAAGUUUUAUUUUUUCGUGCACUCUGCUAAUCAUGUGGGUGAGCCAGUGGAACAGCG` the bound/input enrichment was 0.262 ratio.
With `GUGGACAUGGCAGCACAGGUGGCUGCAGGAAUGGCUUACAUCGAGCGCAUGAAUUAUAUCCACCGAGAUCUGCGAUCAGCAAACAUUCUAGUGGGGAAUGGACUCAUAUGCAAGAUUGCU` the bound/input enrichment was 0.283 ratio.
`CAUGGGUUUUAAGUGCUUGUGGCUCUCUGAAGCUUAAGUGAGGAUUUCCUUGCAAUGAGCCGAAUUUCCCUUCUGUCCCUUGUCACAAGUUUAAAAACCUCACAGCUUGUAUAAUGUAAU` gave a bound/input enrichment of 0.219 ratio.
For `UCUGGCCAUACUCGUGCAUAUGGUGUGUGCUUUGUUGAUACUUCACUGGGAAAGUUUUUCACCGGUCAGUUUUCAGAUGAUCGCCAUUGUUCGAGAUUUAGGACUCUAGUGGCACACUAU`, the bound/input enrichment was 0.285 ratio.
For `CAUUGUAUGUUGAUGAGUUGAUUAAGUCUAACAGAUUCAUCAAGACUCCAUUGCUUUAUUACCGAGACAUUUGAAAAUAUCCAUUAAUGUGAAUAUCACCUGAAUUCAGUCUGUUUGGUG`, the bound/input enrichment was 0.175 ratio.
With `UCUGCAUGAUGUAGAAAUAAAUAAAAUUAUAUCCACAACUGCAUCAAAGACAGAAACACCAACCGUGUCUAAGUCUCUGAGUUCUUCUUUGGAUGACACCGAAGUUAAGAAGGUUAUGGA` the bound/input enrichment was 0.427 ratio.
With `UGGGGUGGGGUGGGGUGGGGGUGGGGGCCUUCCCUCUGCUUGCUCUGCAGAUGAGGGGACCGCCUUCUCUAUCCUUUGCAGCUCUGACAAUUGCCCCGGACCUGCCCAUGCCGGCAUACC` the bound/input enrichment was 0.736 ratio.
With `CAACAGAGUCUAGGAUGGGUUCAUUACAUGAUUCAUGAGCCAGAACCGCAUAUUCUUCUCUUCCGACGACCUCUUCCAAAAGAACAACAAAAAUGAAGUGCAGCUGGGAUCAUCUAAUCU` the bound/input enrichment was 0.257 ratio.
With `UAAAGUGUAUUCUGUACAUAAUUUACAAAUAAAACAUUUUAUUUUAAUUGUUACUUAUUAUUCCGAUAUUUCUCAACACUUAAAUUCAUAAAAUUAAGACCAUGUAAGGGUAUGUUUUUA` the bound/input enrichment was 0.247 ratio.
For `GUUGUGCAGUAGAGUUCAGACUUCUCAUCCAAUCUUAUAUUGUAGGCAUUUCUCAAGUGUUUCCGAUAUUAAUAACUAACAUUGGGAUUUUACUUUGCCAGCCCCAGCCUUCAGAACUCC`, the bound/input enrichment was 0.463 ratio.
`GAAGGCAGCAAAAGGCACAGGUCAAGAAGCAGGUCACGAUCUCGGACCAGAAGUUCCUCCCGGUCCCGUAGCCGAUCCCGUUCACGAAGGAGCAAGUCUUACAGCCGAUCAAGGAGCAGG` gave a bound/input enrichment of 0.0629 ratio.

Series 2
Target: Histone acetyltransferase KAT6A, winged helix 2, GST fusion (KAT6A, Homo sapiens, UniProt Q92794, residues 85-181)
Method: protein binding microarray
Form: double-stranded DNA, one strand shown
Sample: in vitro
Tested at: not given
Notes: 8-mer, flanks averaged, mean of 2 arrays, mostly near background
Reference: not given
Reading: higher = stronger binding
Residues (chain): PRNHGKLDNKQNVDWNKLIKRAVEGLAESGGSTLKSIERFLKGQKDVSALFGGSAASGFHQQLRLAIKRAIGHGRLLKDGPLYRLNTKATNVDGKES
For `ATAGTATA`, the E-score was -0.0851.
`CGCCTGCC` gave an E-score of 0.129.
For `CGGCCGGA`, the E-score was 0.0952.
The E-score of `ACAATGCA` is reported as 0.0653.
For `CCAACACG`, the E-score was 0.0582.
`ACGGACGG` has an E-score of -0.00168.
`GTTACTGA` has an E-score of 0.0481.
`ATACCCAA` has an E-score of -0.0462.
`CTCAGGAA` gave an E-score of 0.0639.

Series 3
Target: CCNA2, cyclin fold, Cln2 fusion (human)
Method: yeast growth competition, sequencing
Sample: yeast
Notes: strong parent motif
Reference: not given
Reading: higher = stronger binding
Starting sequence: ORC1 docking peptide (human); PRARKRLELGNLG; partner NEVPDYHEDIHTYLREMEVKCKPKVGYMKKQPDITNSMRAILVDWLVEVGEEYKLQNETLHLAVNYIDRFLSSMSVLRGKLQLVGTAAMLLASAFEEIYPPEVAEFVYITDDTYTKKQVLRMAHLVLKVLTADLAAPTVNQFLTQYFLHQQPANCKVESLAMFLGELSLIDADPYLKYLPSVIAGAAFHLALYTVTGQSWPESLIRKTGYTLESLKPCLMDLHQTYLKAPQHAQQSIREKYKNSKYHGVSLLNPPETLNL
For `PRARKRLELGNHG [L12H]`, “normalised enrichment score” read 5.23.
`PRARKRLELGNYG [L12Y]` — result for “normalised enrichment score”: 5.33.
Under “normalised enrichment score”, `PRARKFLELGNLG [R6F]` is recorded as 2.43.
`PRARKRLELGNQG [L12Q]`: “normalised enrichment score” 5.12.
`ARARKRLELGNLG [P1A]`: “normalised enrichment score” 4.42.
`PRARKRLELGNLH [G13H]`: “normalised enrichment score” 5.59.
Under “normalised enrichment score”, `PRARKRLEAGNLG [L9A]` is recorded as 1.35.
For `PRARKRLELCNLG [G10C]`, “normalised enrichment score” read 4.06.
For `VRARKRLELGNLG [P1V]`, “normalised enrichment score” read 3.34.
`PLARKRLELGNLG [R2L]`: “normalised enrichment score” 2.92.
`PRARSRLELGNLG [K5S]`: “normalised enrichment score” 0.793.
For `PRLRKRLELGNLG [A3L]`, “normalised enrichment score” read -0.477.
For `PRARKRLELLNLG [G10L]`, “normalised enrichment score” read 2.77.
`PRARKRLEFGNLG [L9F]` — result for “normalised enrichment score”: 6.88.

Further values, each from its own experiment
The fold induction of `PhoQ, residues 284 288 289 292 302 303 MLMVEA` is reported as 3.86 (PhoP, residues 12 14 15 18 19 MHTVL (Escherichia coli, UniProt P23836); Sort-seq, item: YFP reporter; E. coli; PhoQ-PhoP variant library, added: 10 µM Mg2+; reference: high Mg2+ state, higher = stronger signaling).

Repeated from above (series 2):
`ACGGACGG` has an E-score of -0.00168.
`GTTACTGA` has an E-score of 0.0481.
`CTCAGGAA` gave an E-score of 0.0639.
For `CCAACACG`, the E-score was 0.0582.
`CGCCTGCC` gave an E-score of 0.129.
The E-score of `ACAATGCA` is reported as 0.0653.
